{"data": "Published values collected from several papers", "note": "A part holds a random share of what one study measured.", "UniProt Q9NQU5, sequence (whole entry, looked up)": "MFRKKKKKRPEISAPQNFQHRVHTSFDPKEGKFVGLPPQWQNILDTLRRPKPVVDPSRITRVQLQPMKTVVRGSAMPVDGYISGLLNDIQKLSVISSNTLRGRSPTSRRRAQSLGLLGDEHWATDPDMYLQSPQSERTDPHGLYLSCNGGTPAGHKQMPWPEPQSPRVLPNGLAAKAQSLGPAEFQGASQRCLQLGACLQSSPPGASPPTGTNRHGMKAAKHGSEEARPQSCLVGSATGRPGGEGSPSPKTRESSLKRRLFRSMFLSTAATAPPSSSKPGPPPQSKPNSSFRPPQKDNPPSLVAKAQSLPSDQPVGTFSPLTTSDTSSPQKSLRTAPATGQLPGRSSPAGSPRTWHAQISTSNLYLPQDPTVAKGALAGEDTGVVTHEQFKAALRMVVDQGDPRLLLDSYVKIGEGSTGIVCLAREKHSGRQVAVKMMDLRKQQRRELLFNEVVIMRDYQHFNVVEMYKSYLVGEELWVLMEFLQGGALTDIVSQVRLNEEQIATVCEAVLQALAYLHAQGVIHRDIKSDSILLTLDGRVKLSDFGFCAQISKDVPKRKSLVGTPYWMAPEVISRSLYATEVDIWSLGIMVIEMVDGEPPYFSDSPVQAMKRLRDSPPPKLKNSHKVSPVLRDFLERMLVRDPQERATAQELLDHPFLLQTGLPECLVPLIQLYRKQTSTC"}
{"data": "Block 1", "target": "Interferon regulatory factor 5, full length, phosphomimetic (IRF5, Homo sapiens, UniProt Q13568-2, residues 1-514, K96S/S451D/S453D/S456D/S462D)", "technique": "protein-binding microarray", "molecule type": "double-stranded DNA, one strand shown", "medium": "in vitro", "concentration": "250 nM", "notes": "60-bp whole probe", "with": "salmon DNA 0.4 mg/ml", "baseline": "random background probes", "reading": "higher = stronger binding", "shared flanks, not repeated": "GCCTAGCAC … GTGCTAGGTCTTGATTCGCTTGACGCTGCTG"}
{"Strand": "TTAGGTTTCCTTTTCCTTTA", "log fluorescence [z-score]": 1.82}
{"Strand": "TTTGGTTCCCTTTTCCTTTA", "log fluorescence [z-score]": 0.985}
{"Strand": "TTAGGTTTCGTACTGGGTTA", "log fluorescence [z-score]": 4.06}
{"Strand": "GACGGACTGGGTACCGGGAC", "log fluorescence [z-score]": -0.513}
{"Strand": "GTGAATATATGTATATATGT", "log fluorescence [z-score]": 0.272}
{"Strand": "GACGGGTTCCTTTTCCTGAC", "log fluorescence [z-score]": 0.111}
{"Strand": "TCATCTTTCTAATTCAAACT", "log fluorescence [z-score]": 1.59}
{"Strand": "GCCCTTATCCAATCAGAATT", "log fluorescence [z-score]": -0.0097}
{"data": "Block 2", "target": "Fragile X messenger ribonucleoprotein 1, C-terminal low-complexity region (Fmr1, Mus musculus, UniProt P35922)", "technique": "RNA Bind-n-Seq", "molecule type": "RNA", "medium": "in vitro", "concentration": "200 nM", "notes": "whole 134-nt RNA, ends assumed", "with": "150 mM KCl", "baseline": "input library", "reading": "higher = stronger binding", "shared flanks, not repeated": "GGGAGUUCUACAGUCCGACGAUC … UGGAAUUCUCGGGUGUCAAGG"}
{"Strand": "ACAGAGGGUUUGGUGGACGUUAUUCUCUAUCAUCAACCCGAUGACAAAAAGAAGAAUCGGGGGUUCUGCUUCCUUGAAUAUGAGGAUCAC", "log2 enrichment": -1.19}
{"Strand": "CUCAAGUCCUGUGCUACACAUCGUAUGUACCGAAUCGGAAAGGUUUUUGGUGGAAAGUAUUAUGUUACGCCGUUCGGAUCUGCACUUCCA", "log2 enrichment": -0.317}
{"Strand": "CAAGUCCUGUGCUACACAUCGUAUGUACCGAAUCGGGUUUUUUUGGGUGGGUGGGAAAGUAUUAUGUUACGCCGUUCGGAUCUGCACUUC", "log2 enrichment": 0.964}
{"Strand": "GCAGGAAGUAAAAACAAAUGGAAAUGCUUCGGAUAGUGGCAGGGGUGGGGGUUGCUAAGGAAAGGGUGGGAUGGGAGUCGGUAAAGAGUU", "log2 enrichment": 0.283}
{"Strand": "CAAGUCCUGUGCUACACAUCGUAUGUACCGAAUCGGGAAAAAGGGAGGGUUUGGGAAAGUAUUAUGUUACGCCGUUCGGAUCUGCACUUC", "log2 enrichment": 0.826}
{"Strand": "CACAGACAACACGCACCCACACAGACACAGAGGGAAGGGGUUGGGAUGGGGACGGGGUGCACAGCAGGGCGGGGUAGGACCCCAGCCCCU", "log2 enrichment": 1.23}
{"Strand": "GUCCUGUGCUACACAUCGUAUGUACCGAAUCGGGAAAAAGGGAAAAAGGGGAAAAAGGAAAGUAUUAUGUUACGCCGUUCGGAUCUGCAC", "log2 enrichment": -0.175}
{"Strand": "AAGUCCUGUGCUACACAUCGUAUGUACCGAAUCGGAGGUUUUUUUGGUUUUUUUGGAAAGUAUUAUGUUACGCCGUUCGGAUCUGCACUU", "log2 enrichment": -1.06}
{"data": "Block 3", "target": "TAR DNA-binding protein 43, full length, His tag (TARDBP, Homo sapiens, UniProt Q13148, residues 1-414)", "technique": "RNA Bind-n-Seq", "molecule type": "RNA", "medium": "in vitro", "concentration": "20 nM", "notes": "6-mer, flanks averaged, single round", "with": "150 mM KCl", "baseline": "input library", "reading": "higher = stronger binding"}
{"Strand": "GUUGCA", "6-mer enrichment (R)": 0.831}
{"Strand": "GGGGGG", "6-mer enrichment (R)": 16.3}
{"Strand": "AGCACU", "6-mer enrichment (R)": 0.626}
{"Strand": "CAACAU", "6-mer enrichment (R)": 0.61}
{"Strand": "UUGACU", "6-mer enrichment (R)": 0.627}
{"Strand": "UUUCAG", "6-mer enrichment (R)": 0.611}
{"Strand": "GCUUCA", "6-mer enrichment (R)": 0.617}
{"Strand": "AAUAAU", "6-mer enrichment (R)": 1.45}
{"data": "Further values, each from its own experiment"}
{"SMILES": "COc1ccc(S(=O)(=O)N(CCO)c2ccccc2CN(C)CC=Cc2ccc(Cl)cc2)cc1", "target": "Serine/threonine-protein kinase PAK 6 (PAK6, Homo sapiens, UniProt Q9NQU5)", "observed": "enzyme activity", "mode": "inhibitor", "concentration": "0.5 µM", "baseline": "control", "quantity": "remaining activity", "result": "101%"}
{"note": "For quick reference, copied from above (block 2):"}
{"Strand": "CAAGUCCUGUGCUACACAUCGUAUGUACCGAAUCGGGUUUUUUUGGGUGGGUGGGAAAGUAUUAUGUUACGCCGUUCGGAUCUGCACUUC", "log2 enrichment": 0.964}
{"Strand": "GCAGGAAGUAAAAACAAAUGGAAAUGCUUCGGAUAGUGGCAGGGGUGGGGGUUGCUAAGGAAAGGGUGGGAUGGGAGUCGGUAAAGAGUU", "log2 enrichment": 0.283}
{"Strand": "CAAGUCCUGUGCUACACAUCGUAUGUACCGAAUCGGGAAAAAGGGAGGGUUUGGGAAAGUAUUAUGUUACGCCGUUCGGAUCUGCACUUC", "log2 enrichment": 0.826}
